Measured values collected from several papers.
Numbered parts are unrelated; each lists some results of a single study. Values joined by “and” are separate records of one study, mostly repeats; a detail may differ.
Sequence of UniProt Q6ZN16 (whole entry, looked up): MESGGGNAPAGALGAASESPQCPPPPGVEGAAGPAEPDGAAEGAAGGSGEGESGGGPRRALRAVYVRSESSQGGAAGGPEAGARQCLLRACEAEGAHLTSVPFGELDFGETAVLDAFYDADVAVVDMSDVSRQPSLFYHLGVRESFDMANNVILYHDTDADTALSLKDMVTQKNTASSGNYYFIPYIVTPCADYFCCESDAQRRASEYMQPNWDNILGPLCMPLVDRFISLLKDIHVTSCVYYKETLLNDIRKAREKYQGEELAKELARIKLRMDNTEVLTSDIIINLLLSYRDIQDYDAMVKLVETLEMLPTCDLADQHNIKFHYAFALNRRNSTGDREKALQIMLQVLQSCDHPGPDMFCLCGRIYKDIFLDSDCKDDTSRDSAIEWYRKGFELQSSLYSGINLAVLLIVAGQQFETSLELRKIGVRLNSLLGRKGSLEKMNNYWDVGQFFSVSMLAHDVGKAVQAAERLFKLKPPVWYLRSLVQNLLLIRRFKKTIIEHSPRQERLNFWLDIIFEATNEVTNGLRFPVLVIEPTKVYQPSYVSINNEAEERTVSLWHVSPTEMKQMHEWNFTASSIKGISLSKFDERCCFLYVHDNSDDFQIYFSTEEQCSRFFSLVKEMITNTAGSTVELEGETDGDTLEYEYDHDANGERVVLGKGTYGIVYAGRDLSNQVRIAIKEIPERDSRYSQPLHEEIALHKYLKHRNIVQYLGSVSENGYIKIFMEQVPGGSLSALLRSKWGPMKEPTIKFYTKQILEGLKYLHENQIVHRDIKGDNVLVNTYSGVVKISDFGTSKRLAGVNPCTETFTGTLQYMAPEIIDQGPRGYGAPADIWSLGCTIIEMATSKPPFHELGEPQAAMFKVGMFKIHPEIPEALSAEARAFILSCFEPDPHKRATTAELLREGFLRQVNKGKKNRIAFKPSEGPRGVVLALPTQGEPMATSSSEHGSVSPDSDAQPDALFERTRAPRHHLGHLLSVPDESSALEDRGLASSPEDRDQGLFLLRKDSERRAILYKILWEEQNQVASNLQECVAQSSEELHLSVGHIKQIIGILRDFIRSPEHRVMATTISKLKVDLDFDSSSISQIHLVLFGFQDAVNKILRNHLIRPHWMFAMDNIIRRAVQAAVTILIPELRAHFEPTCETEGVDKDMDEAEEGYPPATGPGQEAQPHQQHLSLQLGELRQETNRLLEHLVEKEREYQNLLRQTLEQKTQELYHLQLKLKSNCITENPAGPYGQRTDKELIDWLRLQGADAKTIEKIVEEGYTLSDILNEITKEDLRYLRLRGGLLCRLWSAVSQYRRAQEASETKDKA
Sequence of UniProt Q00537 (whole entry, looked up): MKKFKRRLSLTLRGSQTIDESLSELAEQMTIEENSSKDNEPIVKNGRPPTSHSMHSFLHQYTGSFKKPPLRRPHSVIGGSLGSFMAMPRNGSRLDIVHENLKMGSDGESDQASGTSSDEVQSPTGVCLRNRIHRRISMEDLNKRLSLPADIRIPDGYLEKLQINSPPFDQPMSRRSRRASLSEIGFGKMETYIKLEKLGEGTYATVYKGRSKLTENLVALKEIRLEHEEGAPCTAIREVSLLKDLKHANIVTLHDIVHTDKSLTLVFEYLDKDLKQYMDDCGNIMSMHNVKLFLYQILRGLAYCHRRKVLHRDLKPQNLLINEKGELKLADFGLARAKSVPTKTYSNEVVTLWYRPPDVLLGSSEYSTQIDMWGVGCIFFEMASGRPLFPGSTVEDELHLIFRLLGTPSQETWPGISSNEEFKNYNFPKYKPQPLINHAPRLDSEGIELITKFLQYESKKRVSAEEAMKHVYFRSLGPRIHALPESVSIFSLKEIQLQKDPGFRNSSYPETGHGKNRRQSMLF
Sequence of UniProt Q6P3R8 (whole entry, looked up): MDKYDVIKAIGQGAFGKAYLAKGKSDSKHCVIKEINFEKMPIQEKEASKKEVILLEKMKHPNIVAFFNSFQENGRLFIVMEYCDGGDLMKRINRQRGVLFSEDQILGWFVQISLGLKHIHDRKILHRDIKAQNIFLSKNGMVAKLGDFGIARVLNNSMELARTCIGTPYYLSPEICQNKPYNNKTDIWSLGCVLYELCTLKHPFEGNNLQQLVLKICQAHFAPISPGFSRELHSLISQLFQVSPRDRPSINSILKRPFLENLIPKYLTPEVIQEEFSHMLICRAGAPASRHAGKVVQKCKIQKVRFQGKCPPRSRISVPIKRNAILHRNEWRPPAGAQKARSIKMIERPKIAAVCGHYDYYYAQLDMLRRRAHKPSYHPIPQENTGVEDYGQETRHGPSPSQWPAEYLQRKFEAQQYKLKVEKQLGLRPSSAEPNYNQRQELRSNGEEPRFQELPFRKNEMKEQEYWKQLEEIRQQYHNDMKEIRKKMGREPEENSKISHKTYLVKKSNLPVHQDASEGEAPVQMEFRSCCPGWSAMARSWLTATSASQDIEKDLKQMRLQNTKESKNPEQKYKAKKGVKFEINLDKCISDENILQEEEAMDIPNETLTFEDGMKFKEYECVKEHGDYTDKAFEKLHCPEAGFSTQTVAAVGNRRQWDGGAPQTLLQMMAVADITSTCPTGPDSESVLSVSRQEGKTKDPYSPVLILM
Sequence of UniProt Q9UQB9 (whole entry, looked up): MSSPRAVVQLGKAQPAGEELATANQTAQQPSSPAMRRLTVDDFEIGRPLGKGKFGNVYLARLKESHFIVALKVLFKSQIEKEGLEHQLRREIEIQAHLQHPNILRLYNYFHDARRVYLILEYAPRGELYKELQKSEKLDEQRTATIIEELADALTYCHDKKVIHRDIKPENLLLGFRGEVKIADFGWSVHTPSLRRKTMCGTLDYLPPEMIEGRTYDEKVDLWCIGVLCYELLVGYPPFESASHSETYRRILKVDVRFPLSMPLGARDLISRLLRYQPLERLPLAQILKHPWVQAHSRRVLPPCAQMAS
Sequence of UniProt P42681 (whole entry, looked up): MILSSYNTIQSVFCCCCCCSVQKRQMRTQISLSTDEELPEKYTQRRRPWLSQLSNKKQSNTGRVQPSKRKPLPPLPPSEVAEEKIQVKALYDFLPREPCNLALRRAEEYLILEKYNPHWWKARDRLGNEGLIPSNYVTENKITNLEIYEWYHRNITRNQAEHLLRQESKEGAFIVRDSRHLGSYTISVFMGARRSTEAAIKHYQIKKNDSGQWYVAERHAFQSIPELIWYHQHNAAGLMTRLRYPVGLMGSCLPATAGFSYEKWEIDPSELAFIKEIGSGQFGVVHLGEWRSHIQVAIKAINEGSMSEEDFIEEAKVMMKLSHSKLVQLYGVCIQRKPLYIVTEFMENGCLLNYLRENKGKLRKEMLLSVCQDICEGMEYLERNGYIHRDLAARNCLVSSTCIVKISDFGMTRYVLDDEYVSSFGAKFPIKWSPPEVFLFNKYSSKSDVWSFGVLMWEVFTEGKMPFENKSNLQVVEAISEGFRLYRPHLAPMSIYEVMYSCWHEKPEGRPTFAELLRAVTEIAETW
Sequence of UniProt Q00534 (whole entry, looked up): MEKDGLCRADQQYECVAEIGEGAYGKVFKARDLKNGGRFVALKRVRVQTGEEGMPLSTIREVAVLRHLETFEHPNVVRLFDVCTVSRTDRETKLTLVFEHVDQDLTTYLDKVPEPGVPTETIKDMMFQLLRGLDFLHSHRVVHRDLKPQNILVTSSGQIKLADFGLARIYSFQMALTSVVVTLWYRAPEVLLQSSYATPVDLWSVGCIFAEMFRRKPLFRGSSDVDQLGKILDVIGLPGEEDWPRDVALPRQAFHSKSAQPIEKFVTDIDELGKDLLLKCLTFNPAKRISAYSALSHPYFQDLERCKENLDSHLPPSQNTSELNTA
Sequence of UniProt P45985 (whole entry, looked up): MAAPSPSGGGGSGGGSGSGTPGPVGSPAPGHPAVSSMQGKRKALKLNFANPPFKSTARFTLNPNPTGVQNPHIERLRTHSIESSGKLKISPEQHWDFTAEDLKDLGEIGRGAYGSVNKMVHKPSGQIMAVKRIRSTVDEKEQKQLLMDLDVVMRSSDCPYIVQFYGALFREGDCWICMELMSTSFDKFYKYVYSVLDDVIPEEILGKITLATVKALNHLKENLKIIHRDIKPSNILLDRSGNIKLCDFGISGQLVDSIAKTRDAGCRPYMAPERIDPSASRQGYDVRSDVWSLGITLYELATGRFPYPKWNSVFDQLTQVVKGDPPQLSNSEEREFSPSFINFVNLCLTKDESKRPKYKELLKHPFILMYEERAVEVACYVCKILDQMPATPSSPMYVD
Sequence of UniProt P06493 (whole entry, looked up): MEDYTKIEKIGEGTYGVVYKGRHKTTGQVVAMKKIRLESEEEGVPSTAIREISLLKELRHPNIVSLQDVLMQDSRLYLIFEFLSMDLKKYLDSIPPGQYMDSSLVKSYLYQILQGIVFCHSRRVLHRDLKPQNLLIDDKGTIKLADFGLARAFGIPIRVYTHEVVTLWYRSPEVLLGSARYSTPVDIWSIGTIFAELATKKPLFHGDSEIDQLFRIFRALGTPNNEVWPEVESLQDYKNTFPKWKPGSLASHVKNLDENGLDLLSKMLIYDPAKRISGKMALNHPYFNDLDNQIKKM

Set 1
Organism: Toxoplasma gondii
Effect on: parasite growth
Technique: drug-repurposing HTS, FLUC reporter
Tested at: concentration not given
Under activity, `OCCN1CCN(CCCN2c3ccccc3Sc3ccc(Cl)cc32)CC1` is recorded as “active”.
`CN1CCCC(n2nc(Cc3ccc(Cl)cc3)c3ccccc3c2=O)CC1` (stereo not drawn): activity “inactive”.
Under activity, `CN1CCN(CC/C=C2/c3ccccc3Sc3ccc(S(=O)(=O)N(C)C)cc32)CC1` is recorded as “inactive”.
For `COc1cc2nc(N3CCN(C(=O)c4ccco4)CC3)nc(N)c2cc1OC`, activity read “inactive”.
For `CC(C)/N=c1\cc2n(-c3ccc(Cl)cc3)c3ccccc3nc-2cc1Nc1ccc(Cl)cc1`, activity read “active”.
`CCN(CC)C(=S)SSC(=S)N(CC)CC` — result for activity: “inactive”.
For `[H]/N=C(/NCCCCC)N/N=C/c1c[nH]c2ccc(OC)cc12`, activity read “inactive”.

Set 2
Structure (SMILES): NS(=O)(=O)c1cc(NC(=O)C2(c3ccccc3Cl)CC2)ccc1Oc1cccc(Cl)c1
Tested at: 1 µM
For Aurora kinase C (AURKC, Homo sapiens, UniProt Q9UQB9); cell-free assay, competition with immobilised ligand: remaining binding read 63%.
For MAP3K1 (Homo sapiens, UniProt Q13233); cell-free assay, competition with immobilised ligand: remaining binding read 100%.
The remaining binding was 85% (CDK19 (Homo sapiens, UniProt Q9BWU1); competition binding).
The remaining binding was 89% (NEK5 (Homo sapiens, UniProt Q6P3R8); cell-free assay, competition with immobilised ligand).
The remaining binding was 88% (SRC (Homo sapiens, UniProt P12931); cell-free assay, competition with immobilised ligand).
It gave 88% for remaining binding (CDK17 (Homo sapiens, UniProt Q00537); cell-free assay, competition with immobilised ligand).
For MAP2K1 (Homo sapiens, UniProt Q02750); cell-free assay, competition with immobilised ligand: remaining binding read 88%.
For MAP3K15 (Homo sapiens, UniProt Q6ZN16); cell-free assay, competition with immobilised ligand: remaining binding read 86%.
It gave 92% for remaining binding (PLK1 (Homo sapiens, UniProt P53350); cell-free assay, competition with immobilised ligand).
For TXK (Homo sapiens, UniProt P42681); binding, competition with immobilised ligand: remaining binding read 90%.
It gave 91% for remaining binding (Ribosomal protein S6 kinase alpha-2, N-terminal kinase domain (RPS6KA2, Homo sapiens, UniProt Q15349); cell-free assay, competition with immobilised ligand).
MARK4 (Homo sapiens, UniProt Q96L34); cell-free assay, competition with immobilised ligand — remaining binding: 82%.
The remaining binding was 84% (CSNK1A1L (Homo sapiens, UniProt Q8N752); cell-free assay, competition with immobilised ligand).
The remaining binding was 79% (DMPK (Homo sapiens, UniProt Q09013); cell-free assay, competition with immobilised ligand).
For MAP2K4 (Homo sapiens, UniProt P45985); cell-free assay, competition with immobilised ligand: remaining binding read 100%.
It gave 70% for remaining binding (MAP3K19 (Homo sapiens, UniProt Q56UN5); cell-free assay, competition with immobilised ligand).
MET (Homo sapiens, UniProt P08581, Y1235D); cell-free assay, competition with immobilised ligand — remaining binding: 61%.
STK32C (Homo sapiens, UniProt Q86UX6); cell-free assay, competition with immobilised ligand — remaining binding: 100%.
It gave 96% for remaining binding (HASPIN (Homo sapiens, UniProt Q8TF76); cell-free assay, competition with immobilised ligand).
For TAOK3 (Homo sapiens, UniProt Q9H2K8); cell-free assay, competition with immobilised ligand: remaining binding read 100%.

Set 3
SMILES: NC(=O)c1ccc(-c2nc(-c3ccc4c(c3)OCCO4)c(-c3ccccn3)[nH]2)cc1
Effect on: enzyme activity
Action: inhibitor
Tested at: 0.5 µM
Relative to: control
WNK3 (Homo sapiens, UniProt Q9BYP7) — remaining activity: 101%.
EPHB1 (Homo sapiens, UniProt P54762) — remaining activity: 91%.
The remaining activity was 104% (Cyclin-dependent kinase 6, with cyclin D3 (CDK6, Homo sapiens, UniProt Q00534)).
The remaining activity was 83.9% (Cyclin-dependent kinase 1, with cyclin B (CDK1, Homo sapiens, UniProt P06493)).
The remaining activity was 89.8% (HIPK2 (Homo sapiens, UniProt Q9H2X6)).
It gave 88% for remaining activity (EPHB4 (Homo sapiens, UniProt P54760)).
The remaining activity was 94.7% (PDPK1 (Homo sapiens, UniProt O15530)).
It gave 99.4% for remaining activity (DYRK3 (Homo sapiens, UniProt O43781)).
For BLK (Homo sapiens, UniProt P51451): remaining activity read 97.6%.

Set 4
Cell line: mouse MPNST tumor cells
Technique: high-content immunofluorescence imaging
Measured: nuclear SOX9
Tested at: 10 µM
Time: 12 h
Setting: mean of 2 replicates
Relative to: DMSO control
Direction: higher = more nuclear SOX9
Under “nuclear SOX9 intensity”, `COc1ccc(S(=O)(=O)Nc2c(C)cc(C)cc2C)cc1` is recorded as 112 % of DMSO.
`O=C(NC1CC1)c1cc(-c2cccs2)on1`: “nuclear SOX9 intensity” 124 % of DMSO.
`C=C(NC(=O)C(=C)NC(=O)c1csc(C2=N[C@@H]3c4csc(n4)[C@H]4NC(=O)c5csc(n5)[C@H]([C@](C)(O)[C@@H](C)O)NC(=O)[C@H]5CSC(=N5)/C(=C/C)NC(=O)[C@H]([C@@H](C)O)NC(=O)c5csc(n5)[C@]3(CC2)NC(=O)[C@H](C)NC(=O)C(=C)NC(=O)[C@H](C)NC(=O)[C@H]([C@@H](C)CC)N[C@@H]2C=Cc3c([C@H](C)O)cc(nc3[C@H]2O)C(=O)O[C@@H]4C)n1)C(N)=O` — result for “nuclear SOX9 intensity”: 147 % of DMSO.
For `CCC(c1ccc(F)c(F)c1)n1c(C(=O)OC)c(-c2ccno2)[nH]c1=S` (stereo not drawn), “nuclear SOX9 intensity” read 95.6 % of DMSO.
`c1ccc(Oc2nc(NC3CCCCC3)c3[nH]cnc3n2)cc1`: “nuclear SOX9 intensity” 136 % of DMSO.
`NC(=O)c1ccc(Oc2ccc(C(N)=O)cc2)cc1` — result for “nuclear SOX9 intensity”: 94.9 % of DMSO.
`CCCCCCN(CCCCCC)C(=O)Cc1c(-c2ccc(Cl)cc2)[nH]c2ccc(Cl)cc12` — result for “nuclear SOX9 intensity”: 90.5 % of DMSO.
`COC(=O)C1=C(C)NC(C)=C(C(=O)OCC(C)C)C1c1ccccc1[N+](=O)[O-]` (stereo not drawn) — result for “nuclear SOX9 intensity”: 113 % of DMSO and 109 % of DMSO.
Under “nuclear SOX9 intensity”, `CCCCOc1nc(N)c2[nH]c(=O)n(Cc3cccc(CC(=O)OC)c3)c2n1` is recorded as 92.3 % of DMSO.

A few entries again (set 4):
`NC(=O)c1ccc(Oc2ccc(C(N)=O)cc2)cc1` — result for “nuclear SOX9 intensity”: 94.9 % of DMSO.
`CCCCCCN(CCCCCC)C(=O)Cc1c(-c2ccc(Cl)cc2)[nH]c2ccc(Cl)cc12` — result for “nuclear SOX9 intensity”: 90.5 % of DMSO.
`COC(=O)C1=C(C)NC(C)=C(C(=O)OCC(C)C)C1c1ccccc1[N+](=O)[O-]` (stereo not drawn) — result for “nuclear SOX9 intensity”: 113 % of DMSO and 109 % of DMSO.
Under “nuclear SOX9 intensity”, `CCCCOc1nc(N)c2[nH]c(=O)n(Cc3cccc(CC(=O)OC)c3)c2n1` is recorded as 92.3 % of DMSO.
